Measurements pooled from the literature.
Lines come from different studies, so protocols differ.
Cell line: L02
Read-out: cell growth or viability

COc1ccc2nc(Cl)c(-c3nc4cc(C)c(C)cc4[nH]3)cc2c1  IC50 (MTT; 48 h): > 100 µM
Cc1cc(CN2CCC(CCCCCCC(=O)NO)CC2)cc(C)c1-c1ncn(C)c1-c1ccc(C#N)c2ccccc12  IC50 (MTT; 72 h): > 10 µM
O=[N+]([O-])[O-].O=[N+]([O-])[O-].[Cu+2].[Cu+2].c1ccc(-c2nc(-c3ccc4c(c3)OCO4)n[n-]2)nc1.c1ccc(-c2nc(-c3ccc4c(c3)OCO4)n[n-]2)nc1  IC50 (MTT; 24 h): 3.96 µM
COc1cc(/C=C/C(=O)OCCCC[P+](c2ccccc2)(c2ccccc2)c2ccccc2)ccc1O  IC50 (SRB; 48 h): 50.7 µM
COc1ccc(S(=O)(=O)Nc2ccc(CCCC(=O)O[C@H]3c4cc5c(cc4[C@@H](c4cc(OC)c(OC)c(OC)c4)[C@H]4C(=O)OC[C@@H]43)OCO5)cc2)cc1  IC50 (CCK-8; 24 h): > 100 µM
Cc1cc2nc(-c3cc4cc5c(cc4nc3Cl)OCO5)[nH]c2cc1C  IC50 (MTT; 48 h): > 100 µM
O=C(/C=C/c1ccccc1)OCCCC[P+](c1ccccc1)(c1ccccc1)c1ccccc1  IC50 (SRB; 48 h): 59.8 µM
COc1ccc(-c2nnc(-c3ccccn3)[nH]2)cc1OC.COc1ccc(-c2nnc(-c3ccccn3)[nH]2)cc1OC.[Cu+2].[O-][Cl+3]([O-])([O-])[O-].[O-][Cl+3]([O-])([O-])[O-]  IC50 (MTT; 24 h): 94.2 µM
O=C(/C=C/c1ccc(O)c(O)c1)OCCCC[P+](c1ccccc1)(c1ccccc1)c1ccccc1  IC50 (SRB; 48 h): 66.8 µM
Fc1ccc2[nH]c(-c3cc4cc5c(cc4nc3Cl)OCO5)nc2c1  IC50 (MTT; 48 h): > 100 µM
CC1(C)CC[C@@]2(CO)C(=C3C=C[C@@H]4[C@@]5(C)CC[C@H](O)[C@@](C)(CO)[C@@H]5CC[C@@]4(C)[C@]3(C)C[C@@H]2O)C1  IC50 (24 h): 79.8 µM
C=C(C)[C@@H]1CC[C@]2(C(=O)OCO/N=[N+](\[O-])N3CCCC3)CC[C@]3(C)[C@H](CC[C@@H]4[C@@]5(C)CC[C@H](OC(C)=O)C(C)(C)[C@@H]5CC[C@]43C)[C@@H]12  IC50 (MTT; 72 h): 27.2 µM
COc1cc(/C=C/C(=O)NCCCCCCNC2=C3C[C@@H](C)C[C@H](OC)[C@H](O)[C@@H](C)/C=C(\C)[C@H](OC(N)=O)[C@@H](OC)/C=C\C=C(/C)C(=O)NC(=CC2=O)C3=O)ccc1O  IC50 (MTT; 72 h): 5.36 µM
O=S(=O)([O-])[O-].[Cu+2].c1ccc(-c2nnc(-c3ccc4c(c3)OCO4)[nH]2)nc1  IC50 (MTT; 24 h): 6 µM
COc1ccc2nc(Cl)c(-c3nc4cc(Cl)ccc4[nH]3)cc2c1  IC50 (MTT; 48 h): > 100 µM

Repeated from above:
COc1ccc(S(=O)(=O)Nc2ccc(CCCC(=O)O[C@H]3c4cc5c(cc4[C@@H](c4cc(OC)c(OC)c(OC)c4)[C@H]4C(=O)OC[C@@H]43)OCO5)cc2)cc1  IC50 (CCK-8; 24 h): > 100 µM
C=C(C)[C@@H]1CC[C@]2(C(=O)OCO/N=[N+](\[O-])N3CCCC3)CC[C@]3(C)[C@H](CC[C@@H]4[C@@]5(C)CC[C@H](OC(C)=O)C(C)(C)[C@@H]5CC[C@]43C)[C@@H]12  IC50 (MTT; 72 h): 27.2 µM
